Results pooled from the literature.
Each numbered part is a random draw from the data of one study; scales do not carry over between parts.

Series 1
Target: Sal-like protein 4, full length isoform B (SALL4, Homo sapiens, UniProt Q9UJQ4-2, residues 1-616)
Method: universal PBM
Molecule type: double-stranded DNA, one strand shown
Medium: in vitro
Tested at: not given
Notes: 8-mer, flanks averaged, mean of replicates
Direction: higher = stronger binding
Quantity: E-score
Target sequence (chain): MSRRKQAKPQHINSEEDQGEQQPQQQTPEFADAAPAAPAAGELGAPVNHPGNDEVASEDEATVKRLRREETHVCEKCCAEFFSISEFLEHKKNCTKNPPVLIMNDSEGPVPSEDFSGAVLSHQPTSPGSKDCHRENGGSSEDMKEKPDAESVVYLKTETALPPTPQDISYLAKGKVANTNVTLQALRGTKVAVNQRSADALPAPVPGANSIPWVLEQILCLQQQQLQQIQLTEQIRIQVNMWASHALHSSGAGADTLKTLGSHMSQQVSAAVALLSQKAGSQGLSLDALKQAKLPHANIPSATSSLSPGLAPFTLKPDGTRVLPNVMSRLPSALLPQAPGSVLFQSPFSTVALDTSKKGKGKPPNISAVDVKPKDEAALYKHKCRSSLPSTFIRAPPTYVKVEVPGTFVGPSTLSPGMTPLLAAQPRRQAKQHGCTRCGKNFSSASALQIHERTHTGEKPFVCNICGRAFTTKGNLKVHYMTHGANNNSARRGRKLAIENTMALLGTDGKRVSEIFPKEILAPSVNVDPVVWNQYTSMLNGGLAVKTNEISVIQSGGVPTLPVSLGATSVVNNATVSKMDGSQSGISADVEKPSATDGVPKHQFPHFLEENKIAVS
AGCCCAGG: -0.34
CCGTCTCG: -0.201
CGGCAGCA: -0.175
AGGGTCCA: -0.302
CAACGAGC: -0.248
CGGAAACA: 0.0267
ATAATCGC: 0.239
AAGCTGAT: -0.0757
ATTCGAAG: 0.0116
CATCAGCC: -0.0914
ACCTACAT: 0.153
ATATCGGC: 0.0963
AATCGATA: 0.244
GCTATCTA: -0.017
CCTGTCAC: -0.217
GCAATATA: 0.334
AGGAGCTA: -0.0507
GAAAGTAC: 0.0596
GATAGACC: 0.0226
CCGATATA: 0.259

Series 2
Target: Histone acetyltransferase KAT6A, both winged helices, GST fusion (KAT6A, Homo sapiens, UniProt Q92794, residues 1-181)
Method: protein binding microarray
Molecule type: double-stranded DNA, one strand shown
Medium: in vitro
Tested at: not given
Notes: 8-mer, flanks averaged, mean of 2 arrays, mostly near background
Relative to: not given
Direction: higher = stronger binding
Quantity: E-score
Construct (chain): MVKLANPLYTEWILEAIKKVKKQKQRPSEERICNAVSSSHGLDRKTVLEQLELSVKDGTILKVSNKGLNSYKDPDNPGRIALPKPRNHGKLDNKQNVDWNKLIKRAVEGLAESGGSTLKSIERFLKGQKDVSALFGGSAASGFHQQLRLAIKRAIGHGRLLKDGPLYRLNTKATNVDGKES
CGTCCAGA: 0.104
AACACCCA: -0.185
CCGAAGAC: -0.0931
GTAAGGCA: -0.218
AGCTGGTA: -0.16
AAGATTAC: -0.101
CGTAAGTA: 0.0326
CCCCTCCC: -0.0592
AGGGAACC: 0.00281
TTCGTCAA: -0.072
GGCAATCA: -0.0291
CCCAAAAG: -0.0858
AGTAACGC: 0.00345
CCAATCGC: -0.0436
CGAGGTCA: 0.0367
GAGGAGTA: -0.185
GCATGTTA: 0.136
AACTGACA: -0.132
GCCGGCTA: 0.269
CCACAAGG: -0.0466
CGTCAATA: 0.111
CCGCTAGG: 0.215

Series 3
Target: Fragile X messenger ribonucleoprotein 1, C-terminal low-complexity region (Fmr1, Mus musculus, UniProt P35922)
Method: RNA Bind-n-Seq
Molecule type: RNA
Medium: in vitro
Tested at: 200 nM
Notes: whole 134-nt RNA, ends assumed
Together with: 150 mM LiCl
Relative to: input library
Direction: higher = stronger binding
Quantity: log2 enrichment
All molecules: 7-deaza-guanosine replaces G
Shared flanks, not repeated: GGGAGUUCUACAGUCCGACGAUC … UGGAAUUCUCGGGUGUCAAGG
UGGGAGGUGGAUUUUGUUUAUUUUUUUAGCUCAUUUCCAGGGGUGGGAAUUUUUUUUUAAUAUGUGUCAUGAAUAAAGUUGUUCUUGAAA: 0.0773
UAACUUUAGAGGAGGAUCUGAUGGAUAUGGCAGUGGACGUGGAUUUGGGGAUGGCUAUAAUGGGUGUGGAGGAGGACCUGGAGGUGGCAA: 0.751
UGGGAGGUGGAUUUUGUUUAUUUUUUUAGCUCAUUUCCAGGGGUGGGAAUUUAUUUUUAAUAUGUGUCAUGAAUAAAGUUGUUUUUGAAA: -0.0224
UCCUGUGCUACACAUCGUAUGUACCGAAUCGGGAAAAAAAGGGUUUGGGUUUUUUUGGGAAAGUAUUAUGUUACGCCGUUCGGAUCUGCA: -1.57
CACAGACAACACGCACCCACACAGACACAGAGGGAAGGGGUUGGGAUGGGGACAGGGUGCACAGGAGGGCGGGGUAGGACCCCAGCCCCU: 0.0961
CUCAAGUCCUGUGCUACACAUCGUAUGUACCGAAUCGGCCGGGGCCGGGGCCGGAAAGUAUUAUGUUACGCCGUUCGGAUCUGCACUUCC: 0.165
AGUCCUGUGCUACACAUCGUAUGUACCGAAUCGGGUUUUUGGGUUUGGGAAAAAGGGAAAGUAUUAUGUUACGCCGUUCGGAUCUGCACU: -2.14
CACAGACAACACGCACCCACACAGACACAGAGGGAAGGGGUUGGGAUGGGGACAGGGUGCACCGCAGGGCGGGGUAGGACCCCAGCCCCU: 0.448

Series 4
Target: RNA binding protein fox-1 homolog 2, RRM domain, GST-SBP tag (RBFOX2, Homo sapiens, UniProt O43251-10, residues 100-194)
Method: RNA Bind-n-Seq
Molecule type: RNA
Medium: in vitro
Tested at: 365 nM
Notes: natural RNA segment, single round, ends assumed
Relative to: no-protein control
Direction: higher = stronger binding
Quantity: RBNS enrichment (R)
Shared flanks, not repeated: GGGAGUUCUACAGUCCGACGAUC … UGGAAUUCUCGGGUGCCAA
Construct (chain): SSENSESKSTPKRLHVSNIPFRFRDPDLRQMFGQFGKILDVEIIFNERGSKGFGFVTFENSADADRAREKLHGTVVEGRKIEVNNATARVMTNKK
GCCCUCCCUGGUGCGUCUGCGCUGGGGCCCUCAGUGCUCGGGGCCUUGGGGUGCAUGGGUGCCGCCCUGGGCAGCUAGAGUGUCUCAGCCCGGUGCUGGGCCUGGCCGAG: 12.4
UCUGUAGACCGAUUGGAUGUAUGUGGAGGCUGGCCAGAUGGCAACUGAUGACUUGUGUGCAAACAAGUGUUUAUCCGGGUUGCAUUAUCCAAACUGGUUUGUUAAAAACU: 0.541
GAAUACUAUCAACAUGGACUAUCCUGGGAAAGAGCUAGGAAGUAGAUGCUGAGGUCCCCAUCCAAACAGCAAGCUAGGAAAAAGCCUGCCUUGAAAAUAUUUCUAGACAU: 0.572
CCUACUGUUAAAUAGCAUUUGUCUAAUUGCUAAUAAGCCUGUCGUUACCAAAUUUUAUAUAAGAAUGGAAUAGUCAGUCUGGCCUUAAAGAGACACACAAAGAUGGGCUG: 0.439
GCUGGGGUUGAACAGAGCCUCCCACCUGGGAAGGCAGAGCAGACCUGCCCAAGAGCUCCCCACACGCCUCACGUGUUGGAGGGACUGAACACGUCCAGCCAAUCACCUGA: 0.329
AAUUUUUUAACUUAAUGUGUUACUACAAAGAUUUGCAGAUCUUUAAUCAAGCACUAUGUUAAUACUGUAAUAUCAGAAUACUAUGUUGCAUUAUUUAAAAUGUUCAAAUU: 0.775
GUUUAAGGGCUUAAAUCUCAAACUUUGUUAGGAGUAACAGGAGCGUGCUGAGCGGGCAAGCAAUAAAACAAAUCAUACCAAAAAGCCACAUUGCUCUCUCCUAAGCCCCA: 0.476
GCUGCGCUGAGUGAGUUAUGAGGUGCCUUUCCCGGAACCCUCCUCUCGCCUGGACCCAAGAGAGGCGACAGCUGUGGCUGGGGCUCUUGGUUUCCAGAGGGUCUGGACUG: 0.473

Repeated from above (series 2):
CGAGGTCA: 0.0367
GAGGAGTA: -0.185
GCATGTTA: 0.136
AACTGACA: -0.132
GCCGGCTA: 0.269
CCACAAGG: -0.0466
CGTCAATA: 0.111
